Measured values gathered from unrelated publications.
A part holds a random share of what one study measured. Changes are numbered by the printed parent chain.

Series 1
Target: BATF2, bZIP domain (human)
Method: DHFR protein complementation
Matrix: yeast
Setting: single substitutions, most at no-binding floor
Baseline: wild-type JUN-FOS pair
Direction: higher = stronger binding
Quantity: binding fitness
Starting sequence: JUN, bZIP domain (human); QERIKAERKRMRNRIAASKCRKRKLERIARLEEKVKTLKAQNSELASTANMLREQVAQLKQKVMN; partner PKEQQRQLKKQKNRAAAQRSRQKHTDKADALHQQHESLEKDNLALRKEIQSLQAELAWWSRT
A46K: -0.137 natural log
Q41N: -0.773 natural log
K34E: -0.33 natural log
A49N: -1.54 natural log
E54F: -0.786 natural log
A40R: -0.241 natural log
R30V: 0.0154 natural log
I28P: -0.744 natural log
R30P: -0.527 natural log
T48V: -0.306 natural log
V56Q: -1.29 natural log
R30C: -0.316 natural log
R53P: -1.32 natural log
Q58H: -0.396 natural log
V56K: -1.32 natural log
S47Q: -0.12 natural log
T37Q: -0.0849 natural log

Series 2
Target: ABI1, truncated, D143A, DHFR fusion (Arabidopsis thaliana)
Method: DHFR PCA, deep sequencing
Matrix: yeast
Setting: methotrexate growth selection, single substitutions
With: (+)-ABA 0.0091 µM
Baseline: wild-type fitted maximum
Direction: higher = stronger binding
Quantity: relative binding score
Starting sequence: PYL1, truncated, DHFR fusion (Arabidopsis thaliana); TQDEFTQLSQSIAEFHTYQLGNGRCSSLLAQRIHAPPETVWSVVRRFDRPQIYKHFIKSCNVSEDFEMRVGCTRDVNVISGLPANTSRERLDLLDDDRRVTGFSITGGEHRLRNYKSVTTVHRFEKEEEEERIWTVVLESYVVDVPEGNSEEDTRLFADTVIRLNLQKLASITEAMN; partner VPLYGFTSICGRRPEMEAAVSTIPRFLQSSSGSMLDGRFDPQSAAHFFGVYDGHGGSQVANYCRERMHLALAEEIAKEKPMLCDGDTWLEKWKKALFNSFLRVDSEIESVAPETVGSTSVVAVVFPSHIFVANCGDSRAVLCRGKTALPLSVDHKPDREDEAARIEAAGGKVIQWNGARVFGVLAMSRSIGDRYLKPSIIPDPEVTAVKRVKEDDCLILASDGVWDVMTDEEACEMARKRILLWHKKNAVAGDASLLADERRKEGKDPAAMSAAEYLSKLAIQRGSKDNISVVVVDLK
R98M: 1.47%
D3Q: 38.9%
T101K: 0.819%
Q7C: 14%
N114E: 2.34%
D144P: -0.534%
V44R: 3.04%
F56L: 2.71%
I105V: 22.5%
Q10V: 3.24%
K58S: 9.14%
E151A: 49.7%
Q19E: 52.3%

Series 3
Target: RNA binding protein fox-1 homolog 2, RRM domain, GST-SBP tag (RBFOX2, Homo sapiens, UniProt O43251-10, residues 100-194)
Method: RNA Bind-n-Seq
Molecule type: RNA
Matrix: in vitro
Concentration: 365 nM
Setting: natural RNA segment, single round, ends assumed
Baseline: no-protein control
Direction: higher = stronger binding
Quantity: RBNS enrichment (R)
Construct (chain): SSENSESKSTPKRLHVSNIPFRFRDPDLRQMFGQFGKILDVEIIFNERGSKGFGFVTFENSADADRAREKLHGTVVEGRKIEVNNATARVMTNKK
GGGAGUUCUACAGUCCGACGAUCCAGACGUGCAGUGCCAUAAGGUGCCCCAGUCCUUCUGGAGGCCUGGGCUGCUACUGUUGGCCACCCUGUGUCUAGUGAUGCUCUCUGUGCUCACCUCCUAGGCCAUGGAGUGGAAUUCUCGGGUGCCAA: 0.249
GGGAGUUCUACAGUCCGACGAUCUCUUCCUGUGCUCCUUGAUCACCUGAGCUGCCUCAGAUUCCAUUUGGUCCUCUCCUUCCUGGAAGGCUUCCUUUUAUGUUUUGUUUUAAUCCCAAAUGUCUGAAUGUUUUUGGAAUUCUCGGGUGCCAA: 0.895
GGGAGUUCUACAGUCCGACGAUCAAAAAAAAAAAACACGUUUGAUACUUUGUACAUCAGAUGCAUCUUAUUUAAAAGGGAUACUUUUGUAAAAGUAAAACCUUGUAUAAAGAACAAAAUGUUUCUUAAUUUUAUGGAAUUCUCGGGUGCCAA: 3.05
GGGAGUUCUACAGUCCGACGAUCUGCUUUUACCCUACCCUGUACUAUACAUGAAAAUUCCAGUUAUUAACACACUCAAACUGGUGGAGCUUGUUCACCCUAGGAAGGGGAUUGUAUAUAUGGCAGGCUUCCCUUGGAAUUCUCGGGUGCCAA: 0.443
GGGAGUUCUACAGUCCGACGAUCUAGAGUGGGGCGCUGCUGUAAAUACCCAAAAAUGUGGAAGCAACUUUGGAACUGGGUAACAGGCAGAGGUUGGAACAGUUUGGAGGGAUCAGAAGACAGGAAAAUGUGGGUGGAAUUCUCGGGUGCCAA: 1.25
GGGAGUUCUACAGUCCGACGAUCCCGCCUUAGAGCCUCGUCCCUCCCUCACUGAAGGACCUGAGCUGGCCAGGCCCUGAGAGUCUGGUCUGCGCCUUGGGAUGGGGAGUCCCAAAGCGGGACGCCGCAGGUGUUGGAAUUCUCGGGUGCCAA: 0.25
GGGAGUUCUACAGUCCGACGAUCGGAAGCCCAUGAGUAGUAAUUAGACUGUAUUCUUAAGUGUAGACCUUUGCUAAUGUCAGAGACAGUUCCUAACCUAGUAACAGUUCACUUUGCGUCGUUUCUGUACUUCUUGGAAUUCUCGGGUGCCAA: 0.45
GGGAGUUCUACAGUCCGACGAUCGGGAUUACAGGUGUGAGCCACCGCACGUAGCAUUUACAUUAGGUAUUACAAGUAAUGUAAAGAUGAUUUAAGUAUACAGGAGGAUGUGAAUAGGUUAUAUGCAAGCACUAUGGAAUUCUCGGGUGCCAA: 2.43
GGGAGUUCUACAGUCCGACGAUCGGACCCUUCCUCACCCCACCUGUCGGUCUUGUCCUGGCUCUGCCUGUCCCCCACCGUUGUUCUCGUAGGUGAACCCCAGGUCCUCAACUCCCCCCCUUUAUGUGUUGAAAUGGAAUUCUCGGGUGCCAA: 0.995
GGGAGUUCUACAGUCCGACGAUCCUACAAAGAUAUAUGUCUAAAGUUGGAAAAUCAACUUCUGCUUUCUCAGAAUGGGAGACCGAGCGCAGGUUAGGCACCCCUCCCCCUUGCAUCUGUGAGUCCCUCUGGGCUGGAAUUCUCGGGUGCCAA: 0.727
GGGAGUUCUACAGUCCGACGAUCAGUGAAUGGAAAACCUGGGAGAGGAAAGGGUGGACAGAAUUCAAGUCUGCUUCUGUCCCAGCCACAUCCACUUGUCAAUAAAGGCCUUCUGUACCUGACUUUGGGCAACAUGGAAUUCUCGGGUGCCAA: 0.281
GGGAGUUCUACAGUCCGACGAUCAAGUCUCCUCUGGAAAUGCCAAUCCAUCCUUCCCCCAGCUGCUUCCUCGGGGAGGCCCCUGCCCCCACCCUGCCAGCCCUUCCCAGUCUCAUUAGAGGAAGCUUUCCAAAUGGAAUUCUCGGGUGCCAA: 0.68

Series 4
Target: Ras GTPase-activating protein-binding protein 1, C-terminal RGG region (G3BP1, Homo sapiens, UniProt Q13283)
Chain of UniProt Q13283 (whole entry, looked up): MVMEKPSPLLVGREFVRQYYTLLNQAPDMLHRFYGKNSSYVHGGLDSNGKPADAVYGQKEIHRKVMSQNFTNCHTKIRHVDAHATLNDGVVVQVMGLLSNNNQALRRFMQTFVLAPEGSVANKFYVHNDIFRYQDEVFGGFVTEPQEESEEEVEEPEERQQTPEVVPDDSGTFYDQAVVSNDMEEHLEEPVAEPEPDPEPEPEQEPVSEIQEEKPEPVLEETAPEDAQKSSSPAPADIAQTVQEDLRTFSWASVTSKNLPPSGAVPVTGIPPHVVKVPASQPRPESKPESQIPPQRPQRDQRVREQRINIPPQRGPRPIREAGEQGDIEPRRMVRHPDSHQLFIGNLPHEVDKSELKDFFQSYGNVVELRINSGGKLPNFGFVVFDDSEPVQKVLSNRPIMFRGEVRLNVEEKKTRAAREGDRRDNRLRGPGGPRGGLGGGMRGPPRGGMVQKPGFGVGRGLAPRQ
Method: RNA Bind-n-Seq
Molecule type: RNA
Matrix: in vitro
Concentration: 1 µM
Setting: whole 134-nt RNA, ends assumed
With: 150 mM KCl
Baseline: input library
Direction: higher = stronger binding
Quantity: log2 enrichment
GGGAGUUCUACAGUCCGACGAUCUCAAGUCCUGUGCUACACAUCGUAUGUACCGAAUCGGGAGGGAGGGUUUUUGGGAAAGUAUUAUGUUACGCCGUUCGGAUCUGCACUUCCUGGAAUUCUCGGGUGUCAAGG: 1.87
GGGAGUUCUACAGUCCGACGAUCUCCUAGUAUUCUGGCCGUUCAGAGAUCUGCAAUCCUCAAGAAGCAGCAACAGCAGCAGCAGCAACAACAACAUCAAGCCUCAUCUAAUAGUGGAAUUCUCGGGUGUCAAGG: -0.626
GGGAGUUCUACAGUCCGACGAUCUCCUGUGCUACACAUCGUAUGUACCGAAUCGGGUUUGGGAAAAAAAGGGUUUUUUUGGGAAAGUAUUAUGUUACGCCGUUCGGAUCUGCAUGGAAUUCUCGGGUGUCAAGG: -0.175
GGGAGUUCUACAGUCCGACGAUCCCUCAAGUCCUGUGCUACACAUCGUAUGUACCGAAUCGGUGGAAAGGUUUGGAAAGUAUUAUGUUACGCCGUUCGGAUCUGCACUUCCAGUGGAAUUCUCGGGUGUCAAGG: -0.987
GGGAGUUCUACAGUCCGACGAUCUCAAGUCCUGUGCUACACAUCGUAUGUACCGAAUCGGGGCCGGGGCCGGCCGGGGAAAGUAUUAUGUUACGCCGUUCGGAUCUGCACUUCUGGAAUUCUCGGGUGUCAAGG: -1.88
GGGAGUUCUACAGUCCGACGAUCUAACUUUAGAGGACGAUCUGAUGGAUAUGGCAGUGGACGUGGAUUUGGGGAUGGCUAUAAUGGGUAUGGAGGAGGACCUGGAGGUGGCAAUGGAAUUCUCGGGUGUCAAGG: 0.318
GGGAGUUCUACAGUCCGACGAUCACCAUGCAGGUGGGCAUCUUUGGAAAGUGGGGCAAGGGGGGGAUAGGGAGGGGGGUAACACUUUGGGAACAGGUGGUCCCAGGUCGUUUCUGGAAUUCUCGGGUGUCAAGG: -1.09
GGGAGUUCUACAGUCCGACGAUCCCUCAAGUCCUGUGCUACACAUCGUAUGUACCGAAUCGGGAAGGAAGGAAGGGAAAGUAUUAUGUUACGCCGUUCGGAUCUGCACUUCCAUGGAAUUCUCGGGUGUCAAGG: -1.49
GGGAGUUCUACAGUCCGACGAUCCCUCAAGUCCUGUGCUACACAUCGUAUGUACCGAAUCGGCCGGGCCGGGCCGGAAAGUAUUAUGUUACGCCGUUCGGAUCUGCACUUCCAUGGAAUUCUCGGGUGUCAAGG: -1.28
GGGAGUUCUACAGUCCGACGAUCAGUCCUGUGCUACACAUCGUAUGUACCGAAUCGGGGAAAGGGGUUUUUGGGGAGGGGAAAGUAUUAUGUUACGCCGUUCGGAUCUGCACUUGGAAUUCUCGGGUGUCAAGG: 2.41
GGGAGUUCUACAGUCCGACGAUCUCCUGUGCUACACAUCGUAUGUACCGAAUCGGGUUUUUGGGUUUUUGGGAAAAAAAGGGAAAGUAUUAUGUUACGCCGUUCGGAUCUGCAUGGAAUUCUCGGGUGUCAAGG: -0.674
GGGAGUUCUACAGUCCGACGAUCCACAGACAACACGCACCCACACAGACACAGAGGGAAGGGGUUGGGAUGGGGACAGGGUGCACACCAGGGCGGGGUAGGACCCCAGCCCCUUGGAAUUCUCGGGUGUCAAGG: -0.0318
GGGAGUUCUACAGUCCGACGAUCAACUAAUACUCUUAAAUGGUCUUUCAGUAUAGUGGUUCUUACGUAGUUUAACAUAGCUAUAAAUUGAGUUUAACAAUUUAUAAACUCAAGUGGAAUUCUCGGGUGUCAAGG: -1.23
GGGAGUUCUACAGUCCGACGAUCAGUCCUGUGCUACACAUCGUAUGUACCGAAUCGGGAAAAAGGGUUUUUUUGGGUGGGAAAGUAUUAUGUUACGCCGUUCGGAUCUGCACUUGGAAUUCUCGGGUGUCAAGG: 0.515

Series 5
Target: CCNA2, cyclin fold, Cln2 fusion (human)
Method: yeast growth competition, sequencing
Matrix: yeast
Setting: weak parent motif
Baseline: not given
Direction: higher = stronger binding
Quantity: normalised enrichment score
Starting sequence: SLBP docking peptide (human); ARYKRKLLINDFG
K4C: 0.753
L7W: -0.0755
K4Y: 0.581
L7Q: 0.258
K6Y: 2.09
K4M: 1.57
K6I: 1.07
K4G: 1.13
A1I: 0.896
L8R: 0.629
R5I: 0.553
L7T: 0.116
G13P: 1.24
L7A: 0.886
A1T: 2.01
